Results pooled from the literature.
Numbers after ± are the reported error.

For CN(C)C(CNC(=O)Nc1cc(C(F)(F)F)ccc1N1CCOCC1)c1ccncc1 (stereo not drawn), the serum ALT was 96 U/L (mouse, serum; intraperitoneal, 240 mg/kg single dose).
CC[C@H](C)C(=O)N1CCC(NC(=O)Nc2ccc(OC(F)(F)F)c(F)c2)CC1: “subjects with serious TEAE” 0% (healthy volunteers; oral, 0.5 mg single dose).
CCCC(=O)OC1O[C@@H]2O[C@@]3(C)CC[C@H]4[C@H](C)CCC([C@H]1C)[C@@]24OO3 (stereo partly drawn) gave a dead embryos of 2 count (Tg(fli1:EGFP) zebrafish embryos; 5.0 µg/mL, up to 48 hpf).
CC(=O)N(O)CCCP(=O)(O)O gave an approximate LD50 of > 400 mg/kg (Wistar rats; intravenous, 14 days observation, single dose).
CCCCCCCCC=CCCCCCCCC(=O)OCC1OC(n2ccc(N)nc2=O)C(F)(F)C1O (stereo not drawn): plasma concentration “not detected” (beagle dog, plasma; oral, dose not given).
CCCCCCCCCCCCC(=O)O.O=C1CCCC2C3CCCN4CCCC(CN12)C34 (stereo not drawn) — result for “standard entropy of aggregation”: 108 J/(mol·K) (electrical conductivity; water; 293.15 K).
C/C=C/C=C/C/C=C/CCCCCCCc1cccc(O)c1O has a tissue concentration of 31500 ± 2570 ng/g (female Kunming mice, tumour-bearing, tumor; intravenous, 10 mg/kg, 8 h).
For O=C(NCCCCCCCCn1ccc2ccccc21)Oc1ccccc1, the parent remaining was 64 ± 4% (porcine plasma; 20 µM, 30 min).
The HDL level of Cc1ccc(/C=C/C(=O)O)cc1-c1cc2c(cc1C)C(C)(C)CCC2(C)C is reported as 57 ± 10 mg/dL (Sprague-Dawley rat, male, plasma; oral, 100 mg/kg, 3 h, sesame oil vehicle).
For O=c1cc(-c2ccccc2)oc2c(Br)c(O)c(O)c(O)c12, the Cmax was 323 ng/mL (C57BL/6 mouse, plasma; oral, 50 mg/kg, single dose).
COc1cc2ncnc(Oc3cccc(N[11C](=O)Nc4cc(C(C)(C)C(F)(F)F)on4)c3)c2cc1OC has a radioactivity of 1.59 ± 0.43 %ID/g (female Balb/c nude mice, urine; intravenous, dose not given, 5 min).
C[C@@H]1CC[C@H]2[C@@H](C)CO[C@@H]3O[C@@]4(C)CC[C@@H]1[C@]32OO4 gave an MRT(0-t) of 5.36 h (male Sprague-Dawley rat, plasma; oral, 100 mg/kg).
COc1cc(NC(=O)C(=O)c2c(C)n(Cc3ccc(Cl)cc3)c3ccc(C)cc23)ccn1 gave a CL/F of 52.2 mL/min/kg (cynomolgus monkey, plasma; oral, 10 mg/kg).
The concentration of C1=C(c2cc3c(Nc4ccc5scnc5c4)ncnc3s2)CCNC1 is reported as 305 ng/mL (BALB/c mouse, plasma; oral, 10 mg/kg, 30 min).
O=C1Cc2cc(CCN3CCN(C4=NS(=O)(=O)c5ccccc54)CC3)c(Cl)cc2N1 has a percent metabolized of 29.5% (human liver mitochondrial preparation; 1 µM, 30 min, 0.5 mg/mL protein).
CC[C@H](C)[C@H](NC(=O)[C@H](CC(=O)O)NC(=O)[C@H](CO)NC(=O)[C@H](CCC(N)=O)NC(=O)[C@H](C)NC(=O)[C@H](CC(=O)O)NC(=O)[C@H](CCC(=O)O)NC(=O)[C@H](Cc1c[nH]cn1)NC(=O)[C@H](Cc1ccc(O)cc1)NC(=O)[C@H](C)NC(=O)[C@H](CC(=O)O)NC(=O)[C@H](CCC(=O)O)NC(=O)[C@H](Cc1c[nH]cn1)NC(=O)[C@H](Cc1ccc(O)cc1)NC(=O)[C@H](C)NC(=O)[C@H](CC(=O)O)NC(=O)[C@H](CCC(=O)O)NC(=O)[C@H](Cc1c[nH]cn1)NC(=O)[C@H](Cc1ccc(O)cc1)NC(=O)[C@H](C)NC(=O)[C@H](CC(=O)O)NC(=O)[C@H](CCC(=O)O)NC(=O)[C@H](Cc1c[nH]cn1)NC(=O)[C@H](Cc1ccc(O)cc1)NC(=O)[C@H](C)NC(=O)[C@H](CC(=O)O)NC(=O)[C@H](CCC(=O)O)NC(=O)[C@H](Cc1c[nH]cn1)NC(=O)[C@@H](N)Cc1ccc(O)cc1)C(=O)N[C@H](C(=O)N[C@@H](C)C(=O)N[C@@H](Cc1c[nH]cn1)C(=O)N[C@@H](CC(C)C)C(=O)N[C@@H](CC(C)C)C(=O)O)C(C)C has an MCV of 46.5 ± 3 fL (normal mouse; dose not given).
With C[C@]12CC[C@H](O)CC1CCC1C2[C@H](O)C(=O)[C@]2(C)[C@@H](c3ccc(=O)oc3)CC[C@]12O (stereo partly drawn) the CLint was 0.26 µL/min/mg (sulfation, substrate; pig liver cytosol; pH 7.4).
COc1ccc(NC(=O)Cn2c(=O)c3ccccc3n(CC(=O)Nc3cc([125I])c(OC)cc3OC)c2=O)cc1 gave a tracer uptake of 0.14 %ID/g (rat, heart; intravenous, 30 min).
With O=C([O][Ti+2][O]C(=O)c1ccc([P+]([Au-][Cl])(c2ccccc2)c2ccccc2)cc1)c1ccc([P+]([Au-][Cl])(c2ccccc2)c2ccccc2)cc1.c1cc[cH-]c1.c1cc[cH-]c1 the lethal dose was 15 mg/kg/day (C57BL/6 mice, female; subcutaneous, once daily).
The tissue ratio of NC(=O)[C@@H](CCCCNC(=O)CNC(=O)CCC(=O)NCCc1c[nH]cn1)NC(=O)[C@@H](Cc1ccc(O)cc1)NC(=O)[C@@H](CCCCNC(=O)CNC(=O)CCC(=O)NCCc1c[nH]cn1)NC(=O)Cc1ccc(CN2CCN(CC(=O)O)CCN(CC(=O)O)CC2)cc1 [fluorine-18 labelled] is reported as 120 ± 108 (tumour-bearing nude mice; intravenous, 1 h, TF2 pretargeting; baseline: tumour over bone).
Under “peak concentration fold increase”, CCCCCCCC(=O)OC[C@H](NC(=O)[C@H](CO)NC(=O)CN)C(=O)N[C@@H](Cc1ccccc1)C(=O)N[C@@H](CC(C)C)C(=O)N[C@@H](CO)C(=O)N1CCC[C@H]1C(=O)N[C@@H](CCC(=O)O)C(=O)N[C@@H](Cc1cnc[nH]1)C(=O)N[C@@H](CCC(N)=O)C(=O)N[C@@H](CCCNC(=N)N)C(=O)N[C@H](C(=O)N[C@@H](CCC(N)=O)C(=O)N[C@@H](CCC(N)=O)C(=O)N[C@@H](CCCNC(=N)N)C(=O)N[C@@H](CCCCN)C(=O)N[C@@H](CCC(=O)O)C(=O)N[C@@H](CO)C(=O)N[C@@H](CCCCN)C(=O)N[C@@H](CCCCN)C(=O)N1CCC[C@H]1C(=O)N1CCC[C@H]1C(=O)N[C@@H](C)C(=O)N[C@@H](CCCCN)C(=O)N[C@@H](CC(C)C)C(=O)N[C@@H](CCC(N)=O)C(=O)N1CCC[C@H]1C(=O)N[C@@H](CCCNC(=N)N)C(=O)O)C(C)C is recorded as 594 fold (human, plasma; intravenous infusion, 5 µg/kg/h; baseline: baseline).

A few entries again:
CCCCCCCCCCCCC(=O)O.O=C1CCCC2C3CCCN4CCCC(CN12)C34 (stereo not drawn) — result for “standard entropy of aggregation”: 108 J/(mol·K) (electrical conductivity; water; 293.15 K).
